Assay results collected from several papers.
Parts stem from different laboratories: compare values within a part only. Values joined by “and” are separate records of one study, mostly repeats; a detail may differ.
Sequence of UniProt P10721 (whole entry, unmodified, looked up): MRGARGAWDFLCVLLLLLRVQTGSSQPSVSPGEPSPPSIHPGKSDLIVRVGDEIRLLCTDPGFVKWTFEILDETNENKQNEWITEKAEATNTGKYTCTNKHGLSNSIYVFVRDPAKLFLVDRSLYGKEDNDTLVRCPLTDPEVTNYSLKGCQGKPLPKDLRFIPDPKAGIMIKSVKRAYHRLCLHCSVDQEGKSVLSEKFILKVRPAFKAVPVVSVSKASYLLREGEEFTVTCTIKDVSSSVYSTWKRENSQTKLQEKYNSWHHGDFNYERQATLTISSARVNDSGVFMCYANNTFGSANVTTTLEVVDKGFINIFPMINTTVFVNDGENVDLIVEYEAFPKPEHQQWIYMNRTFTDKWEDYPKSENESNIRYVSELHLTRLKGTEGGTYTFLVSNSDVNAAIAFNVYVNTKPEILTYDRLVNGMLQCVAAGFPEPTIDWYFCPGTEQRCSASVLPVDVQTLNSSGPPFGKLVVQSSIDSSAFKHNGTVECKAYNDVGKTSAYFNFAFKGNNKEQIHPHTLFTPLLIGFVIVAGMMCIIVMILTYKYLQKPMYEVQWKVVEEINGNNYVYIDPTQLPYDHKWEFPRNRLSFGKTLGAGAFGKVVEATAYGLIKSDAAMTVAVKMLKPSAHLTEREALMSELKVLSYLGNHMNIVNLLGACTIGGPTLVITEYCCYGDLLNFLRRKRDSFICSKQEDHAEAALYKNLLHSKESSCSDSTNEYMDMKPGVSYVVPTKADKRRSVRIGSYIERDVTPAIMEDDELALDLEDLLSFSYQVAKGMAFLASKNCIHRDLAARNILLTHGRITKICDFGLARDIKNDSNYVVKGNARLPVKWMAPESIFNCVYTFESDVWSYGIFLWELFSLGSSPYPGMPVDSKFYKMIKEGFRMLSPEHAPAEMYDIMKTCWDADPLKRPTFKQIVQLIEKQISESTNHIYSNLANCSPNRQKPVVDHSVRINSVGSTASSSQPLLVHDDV
Sequence of UniProt Q9NRM7 (whole entry, looked up): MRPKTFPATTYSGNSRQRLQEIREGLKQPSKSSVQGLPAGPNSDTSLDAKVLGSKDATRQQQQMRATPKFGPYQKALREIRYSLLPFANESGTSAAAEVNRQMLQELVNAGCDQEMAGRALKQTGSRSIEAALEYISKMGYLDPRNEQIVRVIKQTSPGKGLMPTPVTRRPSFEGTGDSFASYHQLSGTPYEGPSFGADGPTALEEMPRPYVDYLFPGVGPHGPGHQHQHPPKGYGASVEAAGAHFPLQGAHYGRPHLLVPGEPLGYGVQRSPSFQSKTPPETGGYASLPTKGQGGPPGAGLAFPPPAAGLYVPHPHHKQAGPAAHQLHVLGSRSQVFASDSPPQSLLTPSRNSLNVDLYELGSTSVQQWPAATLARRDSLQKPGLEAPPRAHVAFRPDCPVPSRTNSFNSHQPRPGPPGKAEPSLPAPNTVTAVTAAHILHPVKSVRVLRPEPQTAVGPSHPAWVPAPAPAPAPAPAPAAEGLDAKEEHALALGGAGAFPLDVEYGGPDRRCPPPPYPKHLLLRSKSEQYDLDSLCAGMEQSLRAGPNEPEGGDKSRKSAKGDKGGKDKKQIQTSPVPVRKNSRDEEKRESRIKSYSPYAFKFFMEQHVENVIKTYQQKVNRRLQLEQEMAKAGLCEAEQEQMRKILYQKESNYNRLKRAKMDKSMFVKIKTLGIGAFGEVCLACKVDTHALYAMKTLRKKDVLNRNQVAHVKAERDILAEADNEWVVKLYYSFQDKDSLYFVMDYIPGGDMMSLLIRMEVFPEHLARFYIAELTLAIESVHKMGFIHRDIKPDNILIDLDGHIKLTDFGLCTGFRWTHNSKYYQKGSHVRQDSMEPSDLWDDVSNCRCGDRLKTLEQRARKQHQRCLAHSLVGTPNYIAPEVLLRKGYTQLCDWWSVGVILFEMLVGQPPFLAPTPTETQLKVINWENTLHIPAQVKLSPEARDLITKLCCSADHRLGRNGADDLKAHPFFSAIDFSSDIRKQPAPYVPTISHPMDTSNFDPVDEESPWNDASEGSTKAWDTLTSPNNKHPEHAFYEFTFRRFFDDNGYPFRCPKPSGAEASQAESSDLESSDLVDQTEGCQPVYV
Sequence of UniProt Q13177 (whole entry, looked up): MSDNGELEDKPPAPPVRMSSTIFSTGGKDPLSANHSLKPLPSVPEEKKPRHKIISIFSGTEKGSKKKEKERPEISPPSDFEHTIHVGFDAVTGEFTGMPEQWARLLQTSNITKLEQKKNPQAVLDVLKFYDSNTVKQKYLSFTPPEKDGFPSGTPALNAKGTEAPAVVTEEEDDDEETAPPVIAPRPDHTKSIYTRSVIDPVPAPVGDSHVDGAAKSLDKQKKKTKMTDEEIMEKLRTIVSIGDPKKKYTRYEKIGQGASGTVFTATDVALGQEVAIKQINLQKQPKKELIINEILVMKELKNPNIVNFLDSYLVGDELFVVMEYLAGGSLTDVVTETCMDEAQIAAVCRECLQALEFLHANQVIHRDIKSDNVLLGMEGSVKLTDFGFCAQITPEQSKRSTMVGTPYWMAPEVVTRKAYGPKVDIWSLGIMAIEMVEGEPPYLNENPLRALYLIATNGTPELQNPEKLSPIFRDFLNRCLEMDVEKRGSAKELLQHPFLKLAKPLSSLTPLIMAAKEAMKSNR
Sequence of UniProt Q9Y2I7 (whole entry, looked up): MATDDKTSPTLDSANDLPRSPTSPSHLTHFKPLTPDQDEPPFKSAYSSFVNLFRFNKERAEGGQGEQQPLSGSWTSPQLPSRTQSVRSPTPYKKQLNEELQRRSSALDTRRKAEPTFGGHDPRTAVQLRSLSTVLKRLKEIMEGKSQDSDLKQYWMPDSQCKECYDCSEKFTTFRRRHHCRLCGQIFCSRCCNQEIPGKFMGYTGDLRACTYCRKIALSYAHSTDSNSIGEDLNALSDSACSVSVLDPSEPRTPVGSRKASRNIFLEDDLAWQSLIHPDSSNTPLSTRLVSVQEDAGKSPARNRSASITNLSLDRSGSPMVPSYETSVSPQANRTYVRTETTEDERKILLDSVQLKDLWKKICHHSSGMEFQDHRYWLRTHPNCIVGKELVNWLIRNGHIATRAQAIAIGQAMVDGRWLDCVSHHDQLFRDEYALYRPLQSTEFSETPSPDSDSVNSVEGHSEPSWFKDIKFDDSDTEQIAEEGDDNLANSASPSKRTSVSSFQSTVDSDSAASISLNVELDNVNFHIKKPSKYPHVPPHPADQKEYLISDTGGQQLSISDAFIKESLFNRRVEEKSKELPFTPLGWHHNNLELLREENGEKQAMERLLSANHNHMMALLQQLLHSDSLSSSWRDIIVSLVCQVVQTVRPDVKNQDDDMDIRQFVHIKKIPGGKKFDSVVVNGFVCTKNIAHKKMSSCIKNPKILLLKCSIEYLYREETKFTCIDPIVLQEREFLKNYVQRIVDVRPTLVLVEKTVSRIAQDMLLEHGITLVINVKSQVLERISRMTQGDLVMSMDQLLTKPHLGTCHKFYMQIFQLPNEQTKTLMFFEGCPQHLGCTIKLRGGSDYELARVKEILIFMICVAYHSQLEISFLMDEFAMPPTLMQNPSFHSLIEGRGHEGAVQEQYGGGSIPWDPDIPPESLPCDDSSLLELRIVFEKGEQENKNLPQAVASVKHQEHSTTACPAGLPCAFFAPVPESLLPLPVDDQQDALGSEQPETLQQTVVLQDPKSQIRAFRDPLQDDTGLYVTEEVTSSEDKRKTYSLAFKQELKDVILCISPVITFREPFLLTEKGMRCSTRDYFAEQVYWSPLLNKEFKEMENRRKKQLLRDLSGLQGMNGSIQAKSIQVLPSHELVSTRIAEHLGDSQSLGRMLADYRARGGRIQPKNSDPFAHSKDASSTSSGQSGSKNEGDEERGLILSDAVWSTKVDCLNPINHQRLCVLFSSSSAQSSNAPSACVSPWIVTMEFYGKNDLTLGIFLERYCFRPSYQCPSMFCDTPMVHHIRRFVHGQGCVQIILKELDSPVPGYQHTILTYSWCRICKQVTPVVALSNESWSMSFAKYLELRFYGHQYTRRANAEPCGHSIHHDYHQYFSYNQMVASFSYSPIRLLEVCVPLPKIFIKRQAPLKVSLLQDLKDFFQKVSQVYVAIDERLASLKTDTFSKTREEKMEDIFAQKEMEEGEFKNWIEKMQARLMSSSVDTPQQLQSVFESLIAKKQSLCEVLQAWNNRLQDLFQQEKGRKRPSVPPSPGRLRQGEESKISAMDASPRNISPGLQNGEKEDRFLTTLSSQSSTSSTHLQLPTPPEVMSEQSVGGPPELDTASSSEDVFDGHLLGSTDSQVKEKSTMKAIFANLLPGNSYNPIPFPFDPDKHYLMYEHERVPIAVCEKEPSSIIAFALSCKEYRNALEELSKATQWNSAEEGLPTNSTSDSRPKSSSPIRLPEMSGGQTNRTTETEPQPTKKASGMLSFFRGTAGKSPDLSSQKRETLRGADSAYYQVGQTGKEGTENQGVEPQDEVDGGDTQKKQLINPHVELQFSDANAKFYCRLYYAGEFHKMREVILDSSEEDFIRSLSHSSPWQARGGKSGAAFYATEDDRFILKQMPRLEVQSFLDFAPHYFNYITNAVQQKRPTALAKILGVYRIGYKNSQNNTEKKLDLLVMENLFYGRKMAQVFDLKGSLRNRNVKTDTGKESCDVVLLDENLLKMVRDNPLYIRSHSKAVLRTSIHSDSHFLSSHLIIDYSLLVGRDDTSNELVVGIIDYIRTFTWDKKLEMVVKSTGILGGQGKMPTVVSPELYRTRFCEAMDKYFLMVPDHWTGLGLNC
Sequence of UniProt Q00532 (whole entry, looked up): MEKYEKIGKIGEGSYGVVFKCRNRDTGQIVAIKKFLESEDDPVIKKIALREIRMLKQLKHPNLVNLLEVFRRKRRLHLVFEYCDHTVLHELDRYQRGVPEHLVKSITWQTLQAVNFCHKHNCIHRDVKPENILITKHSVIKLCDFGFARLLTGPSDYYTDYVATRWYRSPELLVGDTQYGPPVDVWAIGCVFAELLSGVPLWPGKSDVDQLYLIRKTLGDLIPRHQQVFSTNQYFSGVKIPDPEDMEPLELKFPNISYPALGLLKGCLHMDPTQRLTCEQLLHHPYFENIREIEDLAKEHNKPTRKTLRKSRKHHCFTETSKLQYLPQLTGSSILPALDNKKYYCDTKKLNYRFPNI

Block 1
Target: PABPC1L2, full length, GST fusion (mouse, UniProt A0ABA7IW68)
Technique: RNAcompete
Molecule type: RNA
Medium: in vitro
Tested at: 20 nM
Setting: 7-mer, probes averaged, single round
Relative to: mean of 7-mers
Direction: higher = stronger binding
Endpoint: 7-mer Z-score
Residues (chain): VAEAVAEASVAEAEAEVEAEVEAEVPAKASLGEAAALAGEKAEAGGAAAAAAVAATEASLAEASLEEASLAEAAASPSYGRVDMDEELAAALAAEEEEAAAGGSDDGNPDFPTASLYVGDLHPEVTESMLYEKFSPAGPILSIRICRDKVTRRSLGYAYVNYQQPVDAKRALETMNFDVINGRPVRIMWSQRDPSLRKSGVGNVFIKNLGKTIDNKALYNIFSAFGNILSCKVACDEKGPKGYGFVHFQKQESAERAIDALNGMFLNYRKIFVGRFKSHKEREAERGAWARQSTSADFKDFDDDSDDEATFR
CGGCGUU: -0.267
UCGUAUU: -0.333
CUGAGAU: -0.0536
AAAUUCG: 1.37
UGGACUA: 0.108
AUCCACA: -0.0699
UCGCGGG: 0.0152
GAUGGCU: -0.079

Block 2
Host: human
Medium: microsomes or S9
Tested at: 2 µM
Time: 0.5 h
Endpoint: remaining compound
Clc1n[nH]c2c(CN(Cc3ccccc3)CC3CCCO3)cncc12 (stereo not shown): 81.4%
Cc1cccc(NC(=O)Nc2ccc(Nc3ccc(-n4cccn4)nn3)cc2)c1: 31.5%
CCC1(O)CCOC2(CCN(C(=O)c3cc(Cl)ccc3F)CC2)C1 (stereo not shown): 73.2%

Block 3
SMILES: N#CC1(c2ccccn2)CCN(Cc2cc(C(=O)N3CCCC3)c(=O)n3ccccc23)CC1
Read-out: cell-free assay
Technique: competition with immobilised ligand
Tested at: 1 µM
Endpoint: remaining binding
Mast/stem cell growth factor receptor Kit (KIT, Homo sapiens, UniProt P10721, L576P): 100%
Hepatocyte growth factor receptor (MET, Homo sapiens, UniProt P08581): 95%
Non-receptor tyrosine-protein kinase TNK1 (TNK1, Homo sapiens, UniProt Q13470): 72%
Myosin light chain kinase, smooth muscle (MYLK, Homo sapiens, UniProt Q15746): 100%
Rho-associated protein kinase 1 (ROCK1, Homo sapiens, UniProt Q13464): 100%
Phosphatidylinositol 4,5-bisphosphate 3-kinase catalytic subunit alpha isoform (PIK3CA, Homo sapiens, UniProt P42336, H1047Y): 64%
Dual specificity tyrosine-phosphorylation-regulated kinase 1A (DYRK1A, Homo sapiens, UniProt Q13627): 94%
Serine/threonine-protein kinase LATS2 (LATS2, Homo sapiens, UniProt Q9NRM7): 93%
cGMP-dependent protein kinase 1 (PRKG1, Homo sapiens, UniProt Q13976): 88%
Cyclin-dependent kinase-like 5 (CDKL5, Homo sapiens, UniProt O76039): 100%
Cyclin-dependent kinase-like 1 (CDKL1, Homo sapiens, UniProt Q00532): 78%
Serine/threonine-protein kinase PAK 2 (PAK2, Homo sapiens, UniProt Q13177): 100%
Citron Rho-interacting kinase (CIT, Homo sapiens, UniProt O14578): 99%
Serine/threonine-protein kinase Nek10 (NEK10, Homo sapiens, UniProt Q6ZWH5): 96%
1-phosphatidylinositol 3-phosphate 5-kinase (PIKFYVE, Homo sapiens, UniProt Q9Y2I7): 76%
Mast/stem cell growth factor receptor Kit (KIT, Homo sapiens, UniProt P10721, T670I/V559D): 88%
Serine/threonine-protein kinase N1 (PKN1, Homo sapiens, UniProt Q16512): 91%

Block 4
Target: Prothrombin, mature alpha-thrombin (F2, Homo sapiens, UniProt P00734)
Technique: aptamer microarray, sandwich
Molecule type: DNA with 2'F-ANA
Medium: in vitro
Tested at: 200 nM
Setting: whole 15-mer aptamer, many near background
Added: Cy3 exosite-II aptamer, 400 nM
Direction: higher = stronger binding
Endpoint: mean fluorescence intensity
Strand: GGTTGGTGTGGTTGG
2'F-ANA at 1 2 3 9 15: 244 a.u.
2'F-ANA at 1 2 3 4 12 15: 399 a.u.
2'F-ANA at 2 3 5 8 9 10 12: 62.1 a.u.
2'F-ANA at 1 2 3 5 7 8 9 11 13 15: 58 a.u.
2'F-ANA at 3 5 9 15: 129 a.u.
2'F-ANA at 1 5 6 9 10 13: 43.3 a.u.
2'F-ANA at 1 2 4 7 9 11 13 15: 75 a.u.
2'F-ANA at 2 3 4 6 8 9 10 11 13 15: 159 a.u.

Further values, each from its own experiment
CN1CCC[C@@H]1CCO[C@](C)(c1ccccc1)c1ccc(Cl)cc1  nuclear SOX9 intensity (mouse MPNST tumor cells; high-content immunofluorescence imaging, measured: nuclear SOX9; 10 µM, 12 h, mean of 2 replicates; relative to: DMSO control, higher = more nuclear SOX9): 218 % of DMSO and 201 % of DMSO

For quick reference, copied from above (block 1):
UGGACUA: 0.108
AUCCACA: -0.0699
UCGCGGG: 0.0152
